Measurements gathered from unrelated publications.
Several values in a cell are separate wells, animals, samples, runs or records. ± gives the spread as reported. Converted amounts (≈) assume the structure as drawn.
Chain of UniProt P29320 (whole entry, looked up): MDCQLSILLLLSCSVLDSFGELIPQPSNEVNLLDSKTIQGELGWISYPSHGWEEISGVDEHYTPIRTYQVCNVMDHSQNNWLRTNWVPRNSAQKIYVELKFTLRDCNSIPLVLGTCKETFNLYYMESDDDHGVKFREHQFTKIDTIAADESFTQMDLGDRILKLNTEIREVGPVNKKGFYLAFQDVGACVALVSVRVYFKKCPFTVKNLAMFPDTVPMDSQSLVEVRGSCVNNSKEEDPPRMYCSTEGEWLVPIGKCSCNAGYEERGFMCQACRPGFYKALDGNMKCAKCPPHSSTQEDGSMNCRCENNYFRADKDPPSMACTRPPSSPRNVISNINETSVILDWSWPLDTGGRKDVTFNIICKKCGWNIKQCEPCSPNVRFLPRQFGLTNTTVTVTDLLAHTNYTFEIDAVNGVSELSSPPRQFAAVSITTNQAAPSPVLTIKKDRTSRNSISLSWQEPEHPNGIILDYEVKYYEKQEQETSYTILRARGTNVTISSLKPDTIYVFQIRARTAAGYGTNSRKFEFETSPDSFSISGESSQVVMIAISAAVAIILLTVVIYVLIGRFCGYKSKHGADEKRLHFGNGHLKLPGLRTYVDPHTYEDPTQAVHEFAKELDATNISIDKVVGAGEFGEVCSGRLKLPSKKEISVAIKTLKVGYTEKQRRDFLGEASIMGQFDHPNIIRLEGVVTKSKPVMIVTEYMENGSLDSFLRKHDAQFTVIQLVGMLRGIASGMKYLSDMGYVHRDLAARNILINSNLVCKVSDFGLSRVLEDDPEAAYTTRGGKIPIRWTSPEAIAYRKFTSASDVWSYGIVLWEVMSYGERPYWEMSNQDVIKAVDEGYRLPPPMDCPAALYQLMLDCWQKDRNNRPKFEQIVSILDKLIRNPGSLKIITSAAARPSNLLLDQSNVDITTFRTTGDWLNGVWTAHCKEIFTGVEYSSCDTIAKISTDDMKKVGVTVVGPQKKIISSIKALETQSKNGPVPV

`O=C(NNc1ccccc1)c1nnc(C23CC4CC(CC(C4)C2)C3)o1` gave an EC50 of over 50 µg/mL (Pyricularia grisea; microbial growth).
`O=C1NC2(CC2)COc2ncc(F)cc2[C@H]2COCCN2c2ccn3ncc1c3n2`: “organ-to-brain weight ratio” 20.3 ± 5.29% (Sprague-Dawley rat, female, thymus; oral, 5 mg/kg/day, 4 weeks dosing, end of recovery).
For `CC(C)CC(C(=O)N1CC2(CC1C#N)C(=O)Nc1ccccc12)N(C)C(=O)c1cc2c(F)cc(F)c(F)c2[nH]1` (stereo not shown), the inhibition was 101% (Human coronavirus 229E; cytopathic effect; MRC5; 0.4975 µM).
With `CN[C@@H]1[C@H](O)[C@H](NC)[C@H]2O[C@]3(O)[C@H](O[C@@H]2[C@H]1O)O[C@H](C)C[C@H]3NC(=O)Cc1ccccn1` the MIC was 50 µg/mL (Mycobacteroides abscessus; microbial growth; ATCC19977).
For `CC(C)(C)C(=O)OCOP(=O)(OCOC(=O)C(C)(C)C)C1CCCN(O)C1=O` (stereo not shown), the TGI was 13.5 µM (UACC-257).
`CS(C)(=O)=Nc1ccc(-c2ccc(-c3nc4cc(O[C@@H]5CO[C@H]6[C@@H]5OC[C@H]6O)[nH]c4cc3F)cc2)cc1` gave an inhibition of -9% (Ephrin type-A receptor 3 (EPHA3, Homo sapiens, UniProt P29320); enzyme activity, inhibitor; 10 µM).
`COc1ccccc1-c1n[nH]c2nc(NC3CCN(C(=O)Cc4ccc(F)cc4F)CC3)ncc12` has a relative abundance of 0.94 (bead binding, competition bead pull-down, refers to: LINJ.30.0990; Leishmania donovani axenic amastigote extract; 10 µM; reference: vehicle).
`Cc1ccc2nc(C)c(C(=O)NCc3ccccc3)n2c1` gave an MIC of over 128 µM (Mycobacteroides abscessus; ATCC 19977; 72 h).
For `CN[C@@H]1[C@H](O)[C@H](NC)[C@H]2O[C@]3(O)[C@H](O[C@@H]2[C@H]1O)O[C@H](C)C[C@H]3NC(=O)Cc1ccc(Cl)cn1`, the MIC was 25 µg/mL (Mycobacterium avium; microbial growth; ATCC25291).
For `NCCCO.O=C(O)C(Cl)Cl`, the herbicidal inhibition was 0% (Eclipta prostrata; 15 mg/mL, 21 days, pre-emergence, greenhouse).
`CN[C@@H]1[C@H](O)[C@H](NC)[C@H]2O[C@]3(O)[C@H](O[C@@H]2[C@H]1O)O[C@H](C)C[C@H]3NC(=O)CNC(C)(C)C` gave an MIC of over 200 µg/mL (Proteus vulgaris; microbial growth, broth dilution; ATCC33420).
For `Cc1ccc(-c2nc3ccc(C)cn3c2CC(=O)NCc2ccc(N(C)C)cc2)cc1`, the MIC was over 50 µM (Mycobacterium avium; microbial growth; 6 days).
For `Cc1cc(C(=O)Nc2nc3cccc(C)c3n2[C@H]2CCCCN(C(=O)/C=C/CN(C)C)C2)ccn1`, “EC50 fold shift” read 0.71 fold and 0.79 fold (Trypanosoma brucei; cell growth, Alamar Blue; 2T1 overexpressing Tb927.7.6310; reference: parental 2T1).
`O=C(NNc1ccc(Cl)cc1)c1nnc(CC23CC4CC(CC(C4)C2)C3)o1` has an inhibition of 100% (Pyricularia grisea; microbial growth; 50 µg/mL).
For `CCc1ccn2c(C(=O)NCc3ccc(C)cc3)c(C)nc2c1`, the MIC was over 50 µM (Mycobacteroides abscessus; ATCC 19977; 72 h).
The normalised growth of `Cc1cc(Oc2nc(N3CC[C@@H](c4ccncc4)C3)ncc2F)[nH]n1` is reported as 98% and 101% (Mycobacterium tuberculosis; OD; H37Rv PurF CRISPRi knockdown; 1.5e-05 µM, added: anhydrotetracycline low).
The EC50 of `CON(C(=O)c1cn(C)nc1C(F)F)C(C)Cc1c(Cl)cc(Cl)cc1Cl` (stereo not shown) is reported as 0.097 µg/mL (≈ 0.227 µM) (Fusarium pseudograminearum; spore germination; 12 h, 28 °C).
`Cc1ccc2nc(C)c(CC(=O)NCc3ccc(N(C)C)cc3)n2c1` has an MIC of over 50 µM (Mycobacterium avium; microbial growth; 6 days).
The MIC of `CN[C@@H]1[C@H](O)[C@H](NC)[C@H]2O[C@]3(O)[C@H](O[C@@H]2[C@H]1O)O[C@H](C)C[C@H]3NC(=O)Cc1cc(Cl)ccn1` is reported as 12.5 to 25 µg/mL (Mycobacterium avium; microbial growth; ATCC25291).
For `COc1ccccc1-c1n[nH]c2nc(N[C@H]3CC[C@H](NS(=O)(=O)CC(C)C)CC3)ncc12`, the relative abundance was 0.96 (bead binding, competition bead pull-down, refers to: LINJ.32.2780; Leishmania donovani extract; 10 µM; reference: vehicle).
`CN[C@@H]1[C@H](O)[C@H](NC)[C@H]2O[C@]3(O)[C@H](O[C@@H]2[C@H]1O)O[C@H](C)C[C@H]3NC(=O)Cc1ccccc1` has an MIC of over 200 µg/mL (Proteus vulgaris; microbial growth, broth dilution; ATCC33420).
`Cc1ccc2nc(C)c(C(=O)C(=O)N(C)C)n2c1` gave an MIC of over 128 µM (Mycobacterium avium; microbial growth; 6 days).
